Assay results from different studies.
Values joined by “and” are separate records of one study, mostly repeats; a detail may differ. ± gives the spread as reported.
Chain of UniProt P16675 (whole entry, looked up): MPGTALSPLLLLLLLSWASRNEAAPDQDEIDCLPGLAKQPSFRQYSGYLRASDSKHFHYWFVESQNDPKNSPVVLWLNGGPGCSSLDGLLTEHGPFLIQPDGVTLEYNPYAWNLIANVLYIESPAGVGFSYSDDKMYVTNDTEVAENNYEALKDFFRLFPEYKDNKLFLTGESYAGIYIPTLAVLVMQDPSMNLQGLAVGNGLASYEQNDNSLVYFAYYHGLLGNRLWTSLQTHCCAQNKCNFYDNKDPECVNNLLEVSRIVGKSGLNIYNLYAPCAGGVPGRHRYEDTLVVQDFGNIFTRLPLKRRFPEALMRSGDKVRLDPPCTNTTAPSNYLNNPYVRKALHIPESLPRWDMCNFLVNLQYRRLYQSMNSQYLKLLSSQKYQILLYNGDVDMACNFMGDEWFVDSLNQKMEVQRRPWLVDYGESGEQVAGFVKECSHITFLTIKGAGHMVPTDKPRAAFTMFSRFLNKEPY
Chain of UniProt O00089 (whole entry, looked up): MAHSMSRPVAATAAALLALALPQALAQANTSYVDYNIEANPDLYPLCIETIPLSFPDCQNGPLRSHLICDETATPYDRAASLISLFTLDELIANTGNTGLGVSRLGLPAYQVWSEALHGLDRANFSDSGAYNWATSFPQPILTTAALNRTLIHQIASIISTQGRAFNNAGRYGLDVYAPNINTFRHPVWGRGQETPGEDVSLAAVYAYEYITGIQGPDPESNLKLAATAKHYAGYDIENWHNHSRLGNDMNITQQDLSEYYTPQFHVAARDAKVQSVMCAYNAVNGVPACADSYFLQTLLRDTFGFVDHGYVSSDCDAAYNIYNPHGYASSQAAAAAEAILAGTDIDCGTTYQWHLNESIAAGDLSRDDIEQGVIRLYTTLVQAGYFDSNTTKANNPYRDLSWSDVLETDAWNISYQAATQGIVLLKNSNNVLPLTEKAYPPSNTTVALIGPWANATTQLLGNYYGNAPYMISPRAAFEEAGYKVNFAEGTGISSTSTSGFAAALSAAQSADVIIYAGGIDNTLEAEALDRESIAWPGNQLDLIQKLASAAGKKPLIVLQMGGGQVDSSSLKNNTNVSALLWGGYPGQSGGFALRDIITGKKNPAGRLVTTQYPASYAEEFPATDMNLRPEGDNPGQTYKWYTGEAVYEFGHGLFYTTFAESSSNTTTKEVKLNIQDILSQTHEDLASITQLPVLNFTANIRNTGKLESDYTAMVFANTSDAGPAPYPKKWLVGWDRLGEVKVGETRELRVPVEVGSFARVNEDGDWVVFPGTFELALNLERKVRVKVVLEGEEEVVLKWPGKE
Chain of UniProt P28482 (whole entry, looked up): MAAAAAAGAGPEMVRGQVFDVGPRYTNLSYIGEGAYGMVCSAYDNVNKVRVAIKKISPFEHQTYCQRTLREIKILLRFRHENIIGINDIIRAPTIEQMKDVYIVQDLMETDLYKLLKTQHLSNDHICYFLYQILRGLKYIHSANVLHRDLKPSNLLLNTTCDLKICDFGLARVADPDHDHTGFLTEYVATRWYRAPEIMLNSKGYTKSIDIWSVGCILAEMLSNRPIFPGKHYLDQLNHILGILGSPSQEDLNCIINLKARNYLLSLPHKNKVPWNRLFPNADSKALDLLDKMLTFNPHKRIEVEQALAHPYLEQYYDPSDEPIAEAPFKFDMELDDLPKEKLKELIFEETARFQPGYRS
Chain of UniProt Q9UH17 (whole entry, looked up): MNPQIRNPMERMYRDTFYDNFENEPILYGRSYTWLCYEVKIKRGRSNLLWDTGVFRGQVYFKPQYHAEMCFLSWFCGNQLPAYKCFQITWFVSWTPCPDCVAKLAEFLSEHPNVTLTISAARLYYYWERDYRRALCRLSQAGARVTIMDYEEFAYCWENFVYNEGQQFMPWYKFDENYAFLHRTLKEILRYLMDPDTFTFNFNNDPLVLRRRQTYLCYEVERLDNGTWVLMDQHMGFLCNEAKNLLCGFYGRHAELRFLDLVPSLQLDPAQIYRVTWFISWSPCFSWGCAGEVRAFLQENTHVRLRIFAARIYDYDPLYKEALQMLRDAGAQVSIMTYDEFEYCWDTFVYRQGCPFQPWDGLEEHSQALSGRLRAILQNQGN
Chain of UniProt Q9UM07 (whole entry, looked up): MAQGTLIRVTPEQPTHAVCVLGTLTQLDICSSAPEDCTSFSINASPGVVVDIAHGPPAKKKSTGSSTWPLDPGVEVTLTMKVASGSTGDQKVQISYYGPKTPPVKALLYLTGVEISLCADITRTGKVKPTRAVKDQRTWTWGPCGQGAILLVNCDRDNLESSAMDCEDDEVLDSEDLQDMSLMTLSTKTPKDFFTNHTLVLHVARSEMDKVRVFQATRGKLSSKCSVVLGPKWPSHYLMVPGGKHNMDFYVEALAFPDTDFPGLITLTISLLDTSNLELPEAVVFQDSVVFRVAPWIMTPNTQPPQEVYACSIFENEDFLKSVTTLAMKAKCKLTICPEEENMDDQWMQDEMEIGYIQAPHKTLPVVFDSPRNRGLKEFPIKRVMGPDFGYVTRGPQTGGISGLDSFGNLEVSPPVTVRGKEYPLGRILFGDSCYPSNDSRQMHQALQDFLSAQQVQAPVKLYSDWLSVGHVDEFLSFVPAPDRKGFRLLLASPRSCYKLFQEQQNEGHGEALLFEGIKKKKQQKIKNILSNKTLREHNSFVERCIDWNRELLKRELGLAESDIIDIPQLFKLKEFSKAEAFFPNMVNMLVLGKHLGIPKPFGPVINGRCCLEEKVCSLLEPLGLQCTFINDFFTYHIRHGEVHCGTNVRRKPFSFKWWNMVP
Chain of UniProt Q16512 (whole entry, looked up): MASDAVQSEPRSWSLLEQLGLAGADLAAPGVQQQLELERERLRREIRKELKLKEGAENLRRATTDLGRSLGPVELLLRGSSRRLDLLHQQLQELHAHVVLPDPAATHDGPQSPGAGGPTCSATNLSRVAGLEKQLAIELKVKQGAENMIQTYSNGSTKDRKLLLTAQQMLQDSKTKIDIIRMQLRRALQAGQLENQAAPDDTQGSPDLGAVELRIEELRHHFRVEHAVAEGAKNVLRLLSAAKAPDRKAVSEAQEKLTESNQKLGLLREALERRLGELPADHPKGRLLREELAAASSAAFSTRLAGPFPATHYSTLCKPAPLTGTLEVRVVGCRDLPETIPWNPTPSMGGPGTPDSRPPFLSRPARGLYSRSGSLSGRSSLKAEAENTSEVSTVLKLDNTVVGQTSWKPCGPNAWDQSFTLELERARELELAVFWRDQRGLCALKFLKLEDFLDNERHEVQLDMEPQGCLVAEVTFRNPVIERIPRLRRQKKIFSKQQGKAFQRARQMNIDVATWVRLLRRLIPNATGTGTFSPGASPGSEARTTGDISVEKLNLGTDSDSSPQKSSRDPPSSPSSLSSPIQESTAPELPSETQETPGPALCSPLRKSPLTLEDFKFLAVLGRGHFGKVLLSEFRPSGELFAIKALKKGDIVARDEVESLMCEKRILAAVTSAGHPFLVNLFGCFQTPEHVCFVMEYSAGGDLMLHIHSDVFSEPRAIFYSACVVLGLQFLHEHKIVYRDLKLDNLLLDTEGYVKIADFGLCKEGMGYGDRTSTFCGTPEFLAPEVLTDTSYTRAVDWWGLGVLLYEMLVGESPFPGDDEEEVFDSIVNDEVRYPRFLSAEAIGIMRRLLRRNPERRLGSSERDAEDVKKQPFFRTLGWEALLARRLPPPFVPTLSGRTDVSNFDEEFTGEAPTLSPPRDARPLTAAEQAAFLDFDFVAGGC
Chain of UniProt Q07065 (whole entry, looked up): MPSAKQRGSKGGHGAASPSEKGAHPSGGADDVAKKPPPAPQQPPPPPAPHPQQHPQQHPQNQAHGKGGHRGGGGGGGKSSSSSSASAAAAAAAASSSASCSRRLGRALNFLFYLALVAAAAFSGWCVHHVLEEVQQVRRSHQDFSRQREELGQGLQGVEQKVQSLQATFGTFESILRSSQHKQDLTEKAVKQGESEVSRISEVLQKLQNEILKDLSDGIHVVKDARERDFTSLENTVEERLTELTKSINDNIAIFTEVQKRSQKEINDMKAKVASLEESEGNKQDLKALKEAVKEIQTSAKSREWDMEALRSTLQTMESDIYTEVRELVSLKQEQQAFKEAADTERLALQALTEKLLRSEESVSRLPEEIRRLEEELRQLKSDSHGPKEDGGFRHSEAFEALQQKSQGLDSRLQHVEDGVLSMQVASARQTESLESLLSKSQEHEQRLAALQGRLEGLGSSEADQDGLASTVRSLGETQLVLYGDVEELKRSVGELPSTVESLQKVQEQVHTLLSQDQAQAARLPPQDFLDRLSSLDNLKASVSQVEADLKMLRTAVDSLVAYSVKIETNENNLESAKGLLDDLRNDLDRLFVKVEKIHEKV
Chain of UniProt P07711 (whole entry, looked up): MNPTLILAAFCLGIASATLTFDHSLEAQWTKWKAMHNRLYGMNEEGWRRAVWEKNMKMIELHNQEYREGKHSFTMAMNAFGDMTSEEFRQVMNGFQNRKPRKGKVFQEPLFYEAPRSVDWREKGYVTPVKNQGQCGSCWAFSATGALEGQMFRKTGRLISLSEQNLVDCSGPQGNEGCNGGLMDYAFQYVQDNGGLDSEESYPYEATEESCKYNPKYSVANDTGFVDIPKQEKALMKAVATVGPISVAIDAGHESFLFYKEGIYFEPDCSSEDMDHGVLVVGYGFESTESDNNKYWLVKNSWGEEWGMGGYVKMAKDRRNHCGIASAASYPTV
Chain of UniProt P0A988 (whole entry, unmodified, looked up): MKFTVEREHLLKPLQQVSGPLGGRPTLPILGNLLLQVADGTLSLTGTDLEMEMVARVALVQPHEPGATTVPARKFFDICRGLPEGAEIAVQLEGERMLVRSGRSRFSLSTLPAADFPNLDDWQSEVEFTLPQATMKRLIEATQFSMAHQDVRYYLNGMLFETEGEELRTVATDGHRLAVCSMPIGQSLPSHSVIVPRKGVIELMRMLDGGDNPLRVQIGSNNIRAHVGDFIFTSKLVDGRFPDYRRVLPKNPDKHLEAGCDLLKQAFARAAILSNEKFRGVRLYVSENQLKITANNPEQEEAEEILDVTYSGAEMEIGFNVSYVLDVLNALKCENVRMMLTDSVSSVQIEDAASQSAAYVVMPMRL

CC(C)CC(O)(CC(C)C)c1cn(C(=O)N2CCCC2)nn1
SILAC ratio (Lysosomal protective protein (Ctsa, Mus musculus, UniProt P16675); probe labelling, inhibitor, competitive ABPP-SILAC, refers to: Ctsa; mouse T cells; concentration not given, 4 h, in situ, single peptide; reference: treated over DMSO, lower = more inhibition): 1.24 and 1.34 and 1.03 and 1.32

CCC1(CC)C(=O)N(c2cccc(CN3CCN(Cc4cccc5ccccc45)CC3)c2)C1=O
selectivity ratio (Dipeptidyl peptidase 8 (Homo sapiens, UniProt Q6V1X1); inhibitor; added: GP-AMC substrate; reference: Ki' DPP9 over Ki' DPP8): > 21

N[C@H](C(=O)N1CCCC1)C1CCN(c2nccc3c(-c4ncc(Cl)cc4Cl)cccc23)CC1
kcat (Protein-arginine deiminase type-4 (PADI4, Homo sapiens, UniProt Q9UM07); enzyme activity; 0.2458 µM, added: Ca2+ 0.25 mM): 0.101 s⁻¹ and 0.1 s⁻¹

[CH3][Ti+2][O]C(=O)c1ccc([S][Au][PH](c2ccccc2)(c2ccccc2)c2ccccc2)cc1.c1cc[cH-]c1.c1cc[cH-]c1
remaining activity (Mitogen-activated protein kinase 1 (MAPK1, Homo sapiens, UniProt P28482); kinase activity, HotSpot radiometric; 1 µM, added: ATP 10 µM; reference: vehicle): 107% and 109%

O=C(N1CCCCC1)n1ccnn1
SILAC activity ratio (Alpha/beta hydrolase domain-containing protein 17B (Abhd17b, Mus musculus, UniProt Q7M759); probe labelling, inhibitor, competitive ABPP-SILAC, refers to: Fam108b1; mouse T cells; concentration not given, 4 h, protein level; reference: treated over DMSO cells, lower = stronger inhibition): 1.16

CN(C)[C@H]1C[C@@]23CC[C@@]4(O2)C(=CC[C@]2(C)[C@@H](c5ccc6ccncc6c5)CC[C@H]24)C=C3[C@@H](O)[C@@H]1O
inhibition (Serine/threonine-protein kinase N1 (PKN1, Homo sapiens, UniProt Q16512); ATP probe labelling, inhibitor, KiNativ profiling; 1 µM): -6.9%

CC(C)[C@H]1NC(=O)C[C@H]2/C=C/CCSSC[C@@H](NC1=O)C(=O)N[C@H](Cc1cccc3ccccc13)C(=O)NCC(=O)O2
inhibition (Serine/threonine-protein kinase SIK2 (SIK2, Homo sapiens, UniProt Q9H0K1); enzyme activity, inhibitor; 10 µM): -4.5%

O=C(c1cccc(-n2cccc2)c1)N1CCCN(S(=O)(=O)c2ccc(F)cc2)CC1
Hill slope (Procathepsin L (CTSL, Homo sapiens, UniProt P07711); FRET): 1.2

CCOC(=O)[C@@H]1Cc2c(cc([N+](=O)[O-])cc2[N+](=O)[O-])[C@H](O)[C@]12C(=O)Nc1ccc(Br)cc12
remaining binding (Mitogen-activated protein kinase kinase kinase 9 (MAP3K9, Homo sapiens, UniProt P80192); binding, competition with immobilised ligand; 0.1 µM): 53%

CC(=O)N[C@@H](CCC(N)=O)C(=O)N[C@@H](CC1CCCCC1)C(=O)N[C@@H](CNC(=O)CCl)C(=O)N[C@@H](CC(C)C)C(=O)N[C@@H](Cc1ccccc1)C(=O)O
ΔH (Beta sliding clamp (Escherichia coli, UniProt P0A988, H175G); binding, isothermal titration calorimetry; 25 °C, H175G mutant peptide): -9.7 kcal/mol

O=C(CCCC[C@@H]1SC[C@@H]2NC(=O)N[C@@H]21)NCCCCCCCCN1[C@H]2[C@H](O)[C@@H](O)[C@H](O[C@@H]3OC[C@@H](O)[C@H](O)[C@H]3O)C[C@H]21 (stereo partly shown)
fold enrichment (Exo-1,4-beta-xylosidase xlnD (Aspergillus niger, UniProt O00089); probe labelling, biotin-ABP pulldown LC-MS/MS; xylan-induced secretome; no competitor; reference: total secretome): 12 fold and 11.2 fold and 15.8 fold

O[C@H]1[C@H](O)[C@@H](Cl)C=C[C@@H]1O
kreact (yeast alpha-glucosidase; reactivation, covalent inhibitor; pH 7.0, 37 °C): 2.35e-06 ± 1.7e-07 s^–1

CC[C@H](C)[C@H](NC(=O)[C@H](CCCNC(=N)N)NC(=O)[C@H](CCCNC(=N)N)NC(=O)[C@H](CC(C)C)NC(=O)[C@H](Cc1ccccc1)NC(=O)CNC(=O)CNC(=O)[C@@H](N)Cc1ccc(O)cc1)C(=O)N[C@@H](CCCNC(=N)N)C(=O)N1CCC[C@H]1C(=O)N[C@@H](CCCCN)C(=O)N[C@@H](CC(C)C)C(=O)N[C@@H](CCCCN)C(=O)O
Emax (Probable G-protein coupled receptor 139 (GPR139, Homo sapiens, UniProt Q6DWJ6); G protein activation, agonist, BRET, refers to: Gα12; HEK-293T/17; 40 µM; reference: GαoA response): 7.71%

CCc1nnc(-c2c(OC)cc(-c3cnc4cc(-c5cnn(C)c5)ccn34)cc2OC)o1
remaining binding (Endothelin-1 receptor (EDNRA, Homo sapiens, UniProt P25101); agonist radioligand, radioligand binding; 10 µM, SafetyScreen44 ETA mean; lower = stronger displacement): 96.2%

CCCCC/C=C\C/C=C\C/C=C\C/C=C\CCCC(=O)NCCc1ccc(O)c(O)c1
Hill coefficient (Transient receptor potential cation channel subfamily V member 1 (Trpv1, Mus musculus, UniProt Q704Y3, T551V); ion current, agonist, whole-cell patch clamp; T551V): 1.64 ± 0.46

O=C1NC(=O)c2c1c1cc(F)c[n+]3c1c1c2c2cc(O)ccc2[n]1[Ru-4]312([N]=C=S)[S+]3CC[S+]1CC[S+]2CC3 (stereo not shown)
remaining activity (Casein kinase II subunit alpha' (CSNK2A2, Homo sapiens, UniProt P19784); enzyme activity; 100 nM, human enzyme, added: 10 µM ATP; reference: untreated): 113%

O=C1NC2(CC2)COc2ncc(F)cc2[C@H]2COCCN2c2ccn3ncc1c3n2
organ-to-body weight ratio (Sprague-Dawley rat, male, brain; oral, 10 mg/kg/day, 4 weeks, end of treatment): 0.471 ± 0.021%

C#CCCCCOc1ccc2c(c1)CCCN2C(=O)CCl
reactivity ratio (Cytoskeleton-associated protein 4 (Homo sapiens, UniProt Q07065); mass spectrometry profiling; Ramos cell lysate; 100 µM over 10 µM, UniProt Q07065; reference: high over low concentration): 0.959

C[C@H](NCc1ccc(-c2ccc(C(F)(F)F)cc2)cc1)C(N)=O
inhibition (Serine/threonine-protein kinase PAK 1 (PAK1, Homo sapiens, UniProt Q13153); cell-free assay, competition with immobilised ligand; 1 µM): 6%

CS(C)(=O)=Nc1ccc(-c2ccc(-c3nc4cc(O[C@@H]5CO[C@H]6[C@@H]5OC[C@H]6O)[nH]c4cc3F)cc2)cc1
inhibition (Tyrosine-protein kinase ABL1 (ABL1, Homo sapiens, UniProt P00519, H396P); enzyme activity, inhibitor; 10 µM): -7%

O=C(CN1CN(c2ccccc2)C2(CCN(C(=O)c3cnc4[nH]ncc4c3)CC2)C1=O)NCC(F)(F)F
inhibition (Mitogen-activated protein kinase 8 (MAPK8, Homo sapiens, UniProt P45983); inhibitor; concentration not given): < 50%

C=CC(=O)Nc1cc(-c2ccc(C(=O)N3CCCC(O)(CC)C3)cc2)ccc1F (stereo not shown)
unmodified protein (DNA dC->dU-editing enzyme APOBEC-3B, C-terminal domain (Homo sapiens, UniProt Q9UH17); covalent adduct, intact protein MS; 125 µM, 5 h, 5-fold molar excess): 47% and 62%

Some of these lines once more:
O=C(CCCC[C@@H]1SC[C@@H]2NC(=O)N[C@@H]21)NCCCCCCCCN1[C@H]2[C@H](O)[C@@H](O)[C@H](O[C@@H]3OC[C@@H](O)[C@H](O)[C@H]3O)C[C@H]21 (stereo partly shown)
fold enrichment (Exo-1,4-beta-xylosidase xlnD (Aspergillus niger, UniProt O00089); probe labelling, biotin-ABP pulldown LC-MS/MS; xylan-induced secretome; no competitor; reference: total secretome): 12 fold and 11.2 fold and 15.8 fold

CC(=O)N[C@@H](CCC(N)=O)C(=O)N[C@@H](CC1CCCCC1)C(=O)N[C@@H](CNC(=O)CCl)C(=O)N[C@@H](CC(C)C)C(=O)N[C@@H](Cc1ccccc1)C(=O)O
ΔH (Beta sliding clamp (Escherichia coli, UniProt P0A988, H175G); binding, isothermal titration calorimetry; 25 °C, H175G mutant peptide): -9.7 kcal/mol
